Experimental data from different studies.
Each line is one published result; not all experiments were run side by side. Numbers after ± are the reported error.

The half-life of `C/C(=N\OCCCN1CCCCC1)c1ccc(C(F)(F)F)cc1` is reported as over 12.8 h (mouse plasma).
`Cc1ccc(OCCN(C)C)cc1C(=O)N[C@H](C)c1cc(-c2cnn(C)c2)cc(-c2cnn(C(F)F)c2)c1` has a half-life of 1.28 h (mouse liver microsomes).
`Cc1cccc(-c2nc(Nc3ccncn3)c3sccc3n2)n1` gave a half-life of under 0.05 h (mouse liver microsomes).
`CC(C)(CN)CNC(=O)O[C@H]1CCCC2(C1)OOC1(O2)C2CC3CC(C2)CC1C3` (stereo partly drawn) gave a half-life of 1.08 h (human liver microsomes).
`Cc1ccc(OCCN(C)C)cc1C(=O)N[C@H](C)c1cc(-c2cnn(C)c2)cc(-c2cnn(C3CC3)c2)c1` has a half-life of 1.93 h (mouse liver microsomes).
`CSCC[C@H](NC(=O)[C@H](Cc1ccccc1)NC(=O)CNC(=O)[C@@H](C)NC(=O)[C@@H](N)Cc1ccc(O)cc1)C(=O)N1CCC[C@H]1C(=O)N[C@@H](CC(C)C)C(=O)N[C@@H](Cc1c[nH]c2ccccc12)C(=O)NCc1cc(C(F)(F)F)cc(C(F)(F)F)c1` gave a half-life of 4.8 h (rat plasma; 50 µg/mL, 37 °C).
`CN[C@@H]1[C@H](O)[C@H](NC)[C@H]2O[C@]3(O)[C@H](O[C@@H]2[C@H]1O)O[C@H](C)C[C@@]3(O)CNCc1ccc(F)cc1` gave a half-life of 6.8 h (rat liver microsomes).
The half-life of `CC(C)[C@H](NC(=O)[C@H](CCCNC(=N)N)NC(=O)[C@H](CCC(=O)O)NC(=O)[C@H](CCCNC(=N)N)NC(=O)[C@@H](NC(=O)[C@H](CCCNC(=N)N)NC(=O)[C@@H](NC(=O)[C@@H]1CCCN1C(=O)[C@H]1CCCN1C(=O)[C@@H](NC(=O)[C@H](CCCNC(=N)N)NC(=O)[C@@H](NC(=O)[C@H](CCCNC(=N)N)NC(=O)[C@@H](NC(=O)[C@H](CCCNC(=N)N)NC(=O)[C@@H](NC(=O)[C@@H](N)CCCCN)C(C)C)C(C)C)C(C)C)C(C)C)[C@@H](C)O)C(C)C)C(=O)N[C@@H](CCCCN)C(N)=O` is reported as 5 h (serum 25%).
The half-life of `CC(C)(C)NC(=O)[C@@H]1C[C@@H]2CCCC[C@@H]2CN1C[C@@H](OC(=O)CCC(=O)OC[C@H](O)[C@H]1OC(=O)C(O)=C1O)[C@H](Cc1ccccc1)NC(=O)[C@H](CC(N)=O)NC(=O)c1ccc2ccccc2n1` is reported as 5.73 ± 0.74 h (Caco-2 cells).
`O=C(Cc1ccc2ccccc2c1)N[C@H](Cc1ccccc1)C(=O)N[C@H](Cc1ccc(OP(=O)(O)O)cc1)C(=O)N[C@H](Cc1ccccc1)C(=O)N[C@H](Cc1ccc(OP(=O)(O)O)cc1)C(=O)O` has a half-life of over 15 h (substrate; HepG2 cell lysate; 500 µM, pH 7.4, 37 °C).
For `CCC(CC)OC1C=C(C(=O)OC(C)OC(=O)C(N)CC(C)C)CC(NC(=N)N)C1NC(C)=O` (mixture of isomers), the half-life was 0.387 ± 0.113 h (Caco-2 cell homogenate; pH 7.4, 37 °C, 500 µg/mL protein).
`CC(C)C[C@@H]1NC(=O)Cc2ccc(nc2)-c2ccc(nc2)CSC[C@@H](C(=O)NCC(N)=O)NC(=O)CNC(=O)[C@@H]2CCCN2C(=O)[C@H](CCCCN)NC(=O)[C@H](CC(C)C)NC(=O)[C@@H]2CCCN2C(=O)[C@H](Cc2c[nH]cn2)NC(=O)[C@H](CC(C)C)NC(=O)[C@H](CCC(=O)O)NC(=O)[C@H](CS)NC(=O)[C@H](Cc2ccc(O)cc2)NC(=O)[C@H](CCCCN)NC(=O)[C@H](CCC(N)=O)NC(=O)[C@H](C(C)C)NC1=O` has a half-life of 30 h (human serum; 10 µM, 37 °C).
The half-life of `CC[C@H](C)[C@H](NC(=O)[C@H](CCCN)NC(=O)[C@H](CC(N)=O)NC(=O)[C@H](Cc1c[nH]c2ccccc12)NC(=O)[C@H](Cc1ccccc1)NC(=O)[C@H](CCCN)NC(=O)[C@H](CCCCNC(=N)N)NC(=O)[C@H](CC(C)C)NC(=O)[C@H](Cc1c[nH]c2ccccc12)NC(=O)[C@H](CCCN)NC(=O)[C@H](CCCCNC(=N)N)NC(=O)[C@H](CC(C)C)NC(=O)CNC(C)=O)C(=O)N[C@@H](CCCN)C(=O)N[C@@H](CCCCNC(=N)N)C(N)=O` is reported as 235 h (HPLC; 25% human plasma; 37 °C).
With `Cc1ccc2nc(C)c(C(=O)NCc3ccc(C(F)(F)F)cc3)n2c1` the half-life was 0.3 h (dog liver microsomes).
For `CNc1nc(SC)nc2ccccc12`, the half-life was 0.112 h (human liver microsomes).
With `COc1ccc(-c2cnc3[nH]cc(C#Cc4cccnc4)c3c2)cc1OC` the half-life was over 4 h (plasma).
`CCCCCc1cc(OC(=O)C(NC(=O)CCC(=O)O)C(C)C)c2c(c1)OC(C)(C)C1CCC(C)=CC21` (stereo not drawn) has a half-life of 1420 h (Cremophor RH 40 in isotonic phosphate buffer; pH 7.3, 40 °C).
`C#Cc1c(F)ccc2cc(O)cc(-c3ncc4c(N5CC6CCC(C5)N6C(=O)OCCCCC)nc(OC[C@@]56CCCN5C[C@H](F)C6)nc4c3F)c12` — result for half-life: “stable” (item: prodrug disappearance; mouse whole blood; 60 min).
The half-life of `CC(COC(=O)c1ccccc1)OC(=O)C(N)Cc1ccccc1` (mixture of isomers) is reported as about 21 h (pH 7.4).
For `CC[C@H](C)[C@@H]1NC(=O)[C@H](Cc2ccc(O)cc2)NC(=O)[C@@H](N)CSCSC[C@@H](C(=O)N2CCC[C@H]2C(=O)N[C@@H](CC(C)C)C(=O)NCC(N)=O)NC(=O)[C@H](CC(N)=O)NC(=O)[C@H](CCC(N)=O)NC1=O`, the half-life was 206 h (phosphate buffer; 0.1 mg/mL, pH 9.0, 40 °C).
`CC(COC(=O)c1ccccc1)OC(=O)C(N)C(C)C` (mixture of isomers) has a half-life of over 30 h (isotonic buffer; pH 6.0, 37 °C).
The half-life of `COC(=O)C[C@H](NC(=O)CNC(=O)[C@H](CCCNC(=N)NS(=O)(=O)c1c(C)c(C)c2c(c1C)CC(C)(C)O2)NC(=O)[C@H](C)N1C(=O)c2ccccc2C1=O)C(=O)N[C@@H](Cc1cccc(I)c1)C(=O)OC` is reported as 0.833 h (50 µM, pH 7.4, 25 °C, together with: endoprotease AspN).
With `CC[C@H](C)[C@@H]1NC(=O)[C@H](CC(N)=O)NC(=O)[C@@H]2CCCN2C(=O)[C@@H](NC(=O)[C@H](CC(N)=O)NC(=O)[C@@H](N)CCC(N)=O)COC(=O)[C@H](CCSC)NC(=O)[C@H](Cc2c[nH]c3ccccc23)NC(=O)[C@H](CCC(N)=O)NC(=O)CNC(=O)[C@H](Cc2ccccc2)NC1=O` the half-life was about 4 h (PBS with chymotrypsin; 0.28 mM, pH 7.2, 37 °C, together with: chymotrypsin 50 nM).
`Cn1c(=O)c2cc(C(=O)NCCCN3CCCCCC3)sc2c2ccccc21` gave a half-life of over 2.65 h (human liver microsomes).
`Cc1cccc(-c2nc(Nc3ccncn3)c3c(C)csc3n2)n1` gave a half-life of 0.192 h (human liver microsomes).
`CC(=O)N[C@@H](Cc1ccc(O)cc1)C(=O)N[C@@H](CCCNC(=N)N)C(=O)N[C@@H](Cc1ccccc1)C(=O)N[C@H]1CCC[C@@H]1C(=O)N[C@@H](CCCNC(=N)N)C(=O)N[C@@H](CC(N)=O)C(=O)N[C@H]1CCC[C@@H]1C(=O)N[C@H](C(=O)N[C@@H](Cc1ccccc1)C(=O)N[C@H]1CCC[C@@H]1C(=O)N[C@@H](Cc1ccccc1)C(=O)N[C@@H](Cc1ccc(O)cc1)C(=O)N[C@H]1CCC[C@@H]1C(=O)N[C@H](C(=O)N[C@@H](CC(=O)O)C(N)=O)[C@@H](C)O)C(C)C` gave a half-life of 2.4 h (LC-MS; human serum; 10 µM, 37 °C).
`C[C@]12C(=O)[C@](C)(C(c3ccccc3)=C1c1ccccc1)C1(Br)C(=O)N(CCN)C(=O)C12` (stereo partly drawn) has a half-life of 0.317 h (CO release, HPLC; TRIS-sucrose buffer; pH 7.4, 37 °C).
The half-life of `COc1ccc2nc(C)cc(OCC(=O)Nc3ccccc3OC)c2c1` is reported as under 0.05 h (mouse liver microsomes).
With `N#Cc1ccc(NC(=O)c2cccnc2)cc1Cl` the half-life was 0.354 ± 0.122 h (chemical stability; buffer; 5 µM, pH 2.0, 37 °C).
`N=C(N)NCCCCCCN1CCC23c4c5ccc(O)c4OC2c2nc4ccccc4cc2CC3(O)C1C5` (stereo not drawn) has a half-life of over 8 h (human plasma; 10 µM).

Excerpt of the above:
With `COc1ccc(-c2cnc3[nH]cc(C#Cc4cccnc4)c3c2)cc1OC` the half-life was over 4 h (plasma).
`CCCCCc1cc(OC(=O)C(NC(=O)CCC(=O)O)C(C)C)c2c(c1)OC(C)(C)C1CCC(C)=CC21` (stereo not drawn) has a half-life of 1420 h (Cremophor RH 40 in isotonic phosphate buffer; pH 7.3, 40 °C).
`C#Cc1c(F)ccc2cc(O)cc(-c3ncc4c(N5CC6CCC(C5)N6C(=O)OCCCCC)nc(OC[C@@]56CCCN5C[C@H](F)C6)nc4c3F)c12` — result for half-life: “stable” (item: prodrug disappearance; mouse whole blood; 60 min).
The half-life of `CC(COC(=O)c1ccccc1)OC(=O)C(N)Cc1ccccc1` (mixture of isomers) is reported as about 21 h (pH 7.4).
